Experimental data collected from several papers.
Numbers after ± are the reported error.
UniProt P21397, sequence (whole entry, looked up): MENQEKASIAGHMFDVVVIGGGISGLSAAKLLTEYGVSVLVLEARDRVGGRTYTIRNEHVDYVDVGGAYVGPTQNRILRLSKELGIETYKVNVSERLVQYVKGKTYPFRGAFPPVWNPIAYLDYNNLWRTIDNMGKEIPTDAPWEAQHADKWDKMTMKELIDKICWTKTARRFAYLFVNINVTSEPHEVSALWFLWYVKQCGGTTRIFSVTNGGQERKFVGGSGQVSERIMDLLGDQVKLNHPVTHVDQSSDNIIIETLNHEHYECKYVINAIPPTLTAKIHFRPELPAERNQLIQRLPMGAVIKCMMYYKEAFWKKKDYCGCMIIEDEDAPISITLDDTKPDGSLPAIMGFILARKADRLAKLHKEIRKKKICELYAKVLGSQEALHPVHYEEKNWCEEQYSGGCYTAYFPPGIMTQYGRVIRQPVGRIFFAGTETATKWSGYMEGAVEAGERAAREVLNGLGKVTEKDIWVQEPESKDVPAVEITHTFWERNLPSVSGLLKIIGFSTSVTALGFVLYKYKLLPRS

| SMILES | tested on | test | system | setting | how to read | measurement | result |
| --- | --- | --- | --- | --- | --- | --- | --- |
| COC(=O)[C@H](CSSC(C)(C)[C@H](NC(=O)[C@H](CCC(=O)NC[C@H](O)[C@@H](O)[C@H](O)[C@H](O)CO)NC(=O)[C@H](CCC(=O)O)NC(=O)[C@H](CCC(=O)NC[C@H](O)[C@@H](O)[C@H](O)[C@H](O)CO)NC(=O)[C@H](CCC(=O)O)NC(=O)[C@H](CCC(=O)NC[C@H](O)[C@@H](O)[C@H](O)[C@H](O)CO)NC(=O)CC[C@H](NC(=O)c1ccc(NCc2cnc3nc(N)[nH]c(=O)c3n2)cc1)C(=O)O)C(=O)O)NC(=O)CC[C@H](NC(=O)c1ccc(NCc2cnc3nc(N)[nH]c(=N)c3n2)cc1)C(=O)O |  |  | human liver cytosol | 1 µM, 1 h, 37 °C, acidic pH | relative to: pH 7.4 | AMT release fold change | ≥ 4 fold |
| C=C1CC[C@H](OCCCNC(=O)CCOCCOCCOCCOCCOCCOCCOCCOCCOCCOCCOCCOCCOCCOCCOCCOCCOCCOCCOCCOCCOCCOCCOCCOCCOCCOCCOCCOCCOCCOCCOCCOCCOCCOCCOCCOCCNC(=O)CCN2C(=O)CC(SC[C@H](NC(=O)[C@H](Cc3ccccc3)NC(=O)[C@H](CC(N)=O)NC(=O)[C@H](Cc3c[nH]cn3)NC(=O)[C@@H](NC(=O)[C@H](CC(=O)O)NC(=O)[C@H](CCC(N)=O)NC(=O)[C@H](CC(C)C)NC(=O)[C@H](CCCCN)NC(=O)[C@H](CCCCN)NC(=O)[C@H](CCCNC(=N)N)NC(=O)[C@H](CC(C)C)NC(=O)[C@H](Cc3c[nH]c4ccccc34)NC(=O)[C@H](CCC(=O)O)NC(=O)[C@@H](NC(=O)[C@H](CCCNC(=N)N)NC(=O)[C@H](CCC(=O)O)NC(=O)[C@H](CCSC)NC(=O)[C@H](CO)NC(=O)[C@H](CC(N)=O)NC(=O)[C@H](CC(C)C)NC(=O)[C@H](Cc3c[nH]cn3)NC(=O)[C@H](CCCCN)NC(=O)CNC(=O)[C@H](CC(C)C)NC(=O)[C@H](CC(N)=O)NC(=O)[C@H](Cc3c[nH]cn3)NC(=O)[C@H](CCSC)NC(=O)[C@H](CC(C)C)NC(=O)[C@H](CCC(N)=O)NC(=O)[C@@H](NC(=O)[C@H](CCC(=O)O)NC(=O)[C@H](CO)NC(=O)[C@@H](NC(=O)[C@@H](N)CO)C(C)C)[C@@H](C)CC)C(C)C)C(C)C)C(N)=O)C2=O)C/C1=C/C=C1\CCC[C@]2(C)[C@@H]([C@H](C)CCCC(C)(C)O)CC[C@@H]12 (stereo partly drawn) |  |  | cynomolgus monkey | sc, 20 µg/kg every other day, 21 days | relative to: 0.7 µg/kg dose | dose-normalised Cmax | 0.93 |
| CN1C(=O)[C@@H](Cc2ccc(O)cc2)NC(=O)CNC(=O)[C@H](Cc2ccc3ccccc3c2)NC(=O)[C@H](CCCNC(=N)N)NC(=O)[C@H]1CCCNC(=O)c1ccc(CNC(=O)CN2CCN(CC(=O)O)CCN(CC(=O)O)CCN(CC(=O)O)CC2)cc1 [gallium-68 labelled] |  | MIRD OLINDA/EXM dosimetry | adult male human, stomach wall | extrapolated from C57BL/6 mice |  | absorbed dose coefficient | 0.012 mGy/MBq |
| N=C(N)NCCC[C@@H]1NC(=O)[C@H](CCCCNC(=O)CNC(=O)CNC(=O)CNC(=O)CC[C@H](NC(=O)CNC(=O)CNC(=O)CNC(=O)CN2CCN(CC(=O)O)CCN(CC(=O)O)CCN(CC(=O)O)CC2)C(=O)NCC(=O)NCC(=O)NCC(=O)NCCCC[C@@H]2NC(=O)[C@@H](Cc3ccccc3)NC(=O)[C@H](CC(=O)O)NC(=O)CNC(=O)[C@H](CCCNC(=N)N)NC2=O)NC(=O)[C@@H](Cc2ccccc2)NC(=O)[C@H](CC(=O)O)NC(=O)CNC1=O [indium-111 labelled] |  |  | female athymic nu/nu mice, liver | intravenous, 0.5 h |  | tissue uptake | 2.45 ± 0.14 %ID/g |
| Cc1cc(-c2ccc(NC(=O)[C@H](CCCCNC(=O)CCOCCOCCC(=O)N[C@H](Cc3ccccc3)C(=O)N[C@H]3CSSC[C@@H](C(=O)N[C@H](C(=O)O)[C@@H](C)O)NC(=O)[C@H]([C@@H](C)O)NC(=O)[C@H](CCCCN)NC(=O)[C@@H](Cc4c[nH]c5ccccc45)NC(=O)[C@H](Cc4ccc(O)cc4)NC3=O)NC(=O)CN3CCN(CC(=O)O)CCN(CC(=O)O)CCN(CC(=O)O)CC3)c(C)c2)ccc1N=Nc1ccc2c(S(=O)(=O)O)cc(S(=O)(=O)O)c(N)c2c1O [lutetium-177 labelled] |  | item: non-haematologic adverse events | patients with metastatic neuroendocrine tumours | dose not given |  | patients with toxicity | 33% |
| CC(C)C[C@H](NC(=O)C[C@H](O)[C@H](CC(C)C)NC(=O)[C@H](Cc1c[nH]cn1)NC(=O)CNC(=O)[C@@H](NC(=O)[C@H](C)NC(=O)[C@H](Cc1c[nH]c2ccccc12)NC(=O)[C@H](CCC(N)=O)NC(=O)[C@@H](Cc1ccccc1)NC(=O)CCOCCOCCOCCNC(=O)CN1CCN(CC(=O)O)CCN(CC(=O)O)CC1)C(C)C)C(N)=O [gallium-68 labelled] |  | radio-HPLC | fetal bovine serum | 120 min, 37 °C |  | metabolite share | 19.4% |
| N=C(N)NCCC[C@@H]1NC(=O)[C@H](CCCCNC(=O)CC[C@H](NC(=O)CC[C@H](NC(=O)CN2CCN(CC(=O)O)CCN(CC(=O)O)CCN(CC(=O)O)CC2)C(=O)N[C@@H](CCC(=O)NCCCC[C@@H]2NC(=O)[C@@H](Cc3ccccc3)NC(=O)[C@H](CC(=O)O)NC(=O)CNC(=O)[C@H](CCCNC(=N)N)NC2=O)C(=O)NCCCC[C@@H]2NC(=O)[C@@H](Cc3ccccc3)NC(=O)[C@H](CC(=O)O)NC(=O)CNC(=O)[C@H](CCCNC(=N)N)NC2=O)C(=O)NCCCC[C@@H]2NC(=O)[C@@H](Cc3ccccc3)NC(=O)[C@H](CC(=O)O)NC(=O)CNC(=O)[C@H](CCCNC(=N)N)NC2=O)NC(=O)[C@@H](Cc2ccccc2)NC(=O)[C@H](CC(=O)O)NC(=O)CNC1=O [indium-111 labelled] |  |  | female athymic nu/nu mice, liver | intravenous, 24 h |  | tissue uptake | 2.15 ± 0.57 %ID/g |
| CCCC[C@H](NC(=O)COCCOCCNC(=O)CN1CCN(CC(=O)O)CCN(CC(=O)O)CC1)C(=O)N[C@H]1CC(=O)NCCCC[C@@H](C(N)=O)NC(=O)[C@H](Cc2c[nH]c3ccccc23)NC(=O)[C@H](CCCNC(=N)N)NC(=O)[C@@H](Cc2ccccc2)NC(=O)[C@H](Cc2c[nH]cn2)NC1=O [copper-64 labelled] |  |  | C57 mice, stomach | intravenous, 0.37 MBq, 0.5 h |  | tissue uptake | 2.21 ± 0.56 %ID/g |
| NS(=O)(=O)Nc1ncnc(OCCOc2ncc(Br)cn2)c1-c1ccc(Br)cc1 |  | M6 formation | male Beagle dog, liver microsomes | 50 mg/kg daily for 4 weeks |  | Km | 10 ± 1.7 µM |
| [64Cu+2].c1ccc(CNCc2ccc(CN3CCCN4CCNCCCN(CC4)CC3)cc2)nc1 | CXCR4 |  | NOD/SCID mouse, U87 and U87-stb-CXCR4 xenografts, blood | iv, 120 min, ex vivo |  | tissue uptake | 1.51 ± 0.24 %ID/g |
| COc1ccc2cc([C@H](C)C(=O)N[C@H](Cc3ccccc3)C(=O)N[C@H](Cc3ccccc3)C(=O)N[C@H](Cc3ccc(O)cc3)C(=O)O)ccc2c1 |  |  | hydrogel 0.8 wt% into PBS | 24 h, pH 7.4, 37 °C |  | cumulative release | 8% |
| N=C(N)NCCC[C@H](NC(=O)[C@H](CCCNC(=N)N)NC(=O)[C@H](CCCNC(=N)N)NC(=O)[C@H](CCCNC(=N)N)NC(=O)[C@H](CCCNC(=N)N)NC(=O)[C@H](CCCNC(=N)N)NC(=O)[C@H](CCCNC(=N)N)NC(=O)[C@H](CCCNC(=N)N)NC(=O)CN1CCN(CC(=O)O)CCN(CC(=O)O)CCN(CC(=O)O)CC1)C(=O)O | NIH/3T3 |  |  | 0.10 mM, 4 h | relative to: uptake | Gd retention | 15% |
| [64Cu+2].c1cnc(CNCc2ccc(CN3CCCN4CCNCCCN(CC4)CC3)cc2)nc1 | CXCR4 |  | NOD/SCID mouse, U87 and U87-stb-CXCR4 xenografts, lungs | iv, 90 min, ex vivo, added: AMD3465 25 mg/kg sc before tracer |  | tissue uptake | 2.21 ± 0.56 %ID/g |
| CC(C)C[C@@H](NC(=O)[C@@H](CC(C)C)NC(=O)[C@@H](CC(=O)O)NC(=O)[C@@H](CC(C)C)NC(=O)[C@@H](CC(C)C)NC(=O)[C@@H](CC(C)C)NC(=O)[C@H](NC(=O)[C@@H](CC(=O)O)NC(=O)[C@H](NC(=O)[C@H]1CCCN1C(=O)[C@@H](Cc1ccccc1)NC(=O)[C@@H](CC(C)C)NC(=O)[C@@H](CC(C)C)NC(=O)[C@@H](CC(=O)O)NC(=O)[C@@H](CC(C)C)NC(=O)[C@@H](Cc1ccc(O)cc1)NC(=O)[C@@H](C)NC(=O)[C@@H](CCCNC(=N)N)NC(=O)[C@@H](Cc1c[nH]c2ccccc12)NC(=O)[C@H]1CCCN1C(=O)[C@@H](CC(N)=O)NC(=O)[C@@H](CCC(N)=O)NC(=O)[C@@H](CC(=O)O)NC(=O)[C@@H](CC(=O)O)NC(=O)[C@@H](CSC1CC(=O)N(CCNC(=O)CN2CCN(CC(=O)O)CCN(CC(=O)O)CC2)C1=O)NC(=O)[C@@H](C)N)[C@H](C)O)[C@H](C)O)C(=O)N[C@H](Cc1c[nH]c2ccccc12)C(=O)O (stereo partly drawn) [fluorine-18 labelled] |  |  | male nude mice, LNCaP xenograft | intravenous, 4 h | relative to: tumour over bone | tumour-to-bone ratio | 4.3 ± 1.1 |
| COc1ccc(CCCN[C@H]2CCC[C@@H]2CN[C@H]2CCC[C@@H]2CNCCCCN[C@@H]2CCC[C@H]2CN)cc1 | MAOA (Homo sapiens, UniProt P21397) | enzyme activity, inhibitor |  |  |  | Ki | 310 µM |

Repeated from above:
| SMILES | tested on | test | system | setting | how to read | measurement | result |
| --- | --- | --- | --- | --- | --- | --- | --- |
| CCCC[C@H](NC(=O)COCCOCCNC(=O)CN1CCN(CC(=O)O)CCN(CC(=O)O)CC1)C(=O)N[C@H]1CC(=O)NCCCC[C@@H](C(N)=O)NC(=O)[C@H](Cc2c[nH]c3ccccc23)NC(=O)[C@H](CCCNC(=N)N)NC(=O)[C@@H](Cc2ccccc2)NC(=O)[C@H](Cc2c[nH]cn2)NC1=O [copper-64 labelled] |  |  | C57 mice, stomach | intravenous, 0.37 MBq, 0.5 h |  | tissue uptake | 2.21 ± 0.56 %ID/g |
| COC(=O)[C@H](CSSC(C)(C)[C@H](NC(=O)[C@H](CCC(=O)NC[C@H](O)[C@@H](O)[C@H](O)[C@H](O)CO)NC(=O)[C@H](CCC(=O)O)NC(=O)[C@H](CCC(=O)NC[C@H](O)[C@@H](O)[C@H](O)[C@H](O)CO)NC(=O)[C@H](CCC(=O)O)NC(=O)[C@H](CCC(=O)NC[C@H](O)[C@@H](O)[C@H](O)[C@H](O)CO)NC(=O)CC[C@H](NC(=O)c1ccc(NCc2cnc3nc(N)[nH]c(=O)c3n2)cc1)C(=O)O)C(=O)O)NC(=O)CC[C@H](NC(=O)c1ccc(NCc2cnc3nc(N)[nH]c(=N)c3n2)cc1)C(=O)O |  |  | human liver cytosol | 1 µM, 1 h, 37 °C, acidic pH | relative to: pH 7.4 | AMT release fold change | ≥ 4 fold |
